Results gathered from unrelated publications.
Each numbered part is a random draw from the data of one study; scales do not carry over between parts.

Study 1
Target: Replicase polyprotein 1ab, nsp13 helicase (rep, Severe acute respiratory syndrome coronavirus 2, UniProt P0DTD1)
Action: inhibitor
Tested at: 20 µM
SMILES	inhibition [%]
CCOc1cc(/C=C2/C(=O)N(c3ccccc3)N=C2C)cc(Cl)c1OCC(=O)OC	1.97
CC(C)(C=O)Cc1cc(C(C)(C)C)c(O)c(C(C)(C)C)c1	2.48
N[C@@H](Cn1ccc(=O)c(O)c1)C(=O)O	9.91
CN(C)[C@@H](CCOc1cccc2ccccc12)c1ccccc1	9.6
Cc1ccc2nc(N)[nH]c(=O)c2c1Sc1ccncc1	1.69
CN(C)CCn1nnnc1SCC1=C(C(=O)O)N2C(=O)[C@@H](NC(=O)Cc3csc(N)n3)[C@H]2SC1	-0.09
CCCn1c(=O)c2[nH]c(-c3ccccc3)nc2n(CCC)c1=O	-0.95
Cc1cc(CC(C)CC(C)(C)C)n(O)c(=O)c1 (centres unmarked)	-1.14
CC(C)CC(N)=O	-5.84
COc1ccc(C[C@@H](C)NC[C@H](O)c2ccc(O)c(NC=O)c2)cc1 (racemic)	3.09
NC(=O)C(c1ccccc1)(c1ccc(F)cc1)c1ccc(F)cc1	2.69
Cc1noc(C)c1-c1ccc(-c2cc(C(N)=O)c(NC(N)=O)s2)c(O[C@H]2CCNC2)c1	45.5
O=C(CCN1CCN(C(=O)OCc2cc(Cl)cc(Cl)c2)CC1)c1ccc2[nH]c(=O)oc2c1	2.65
O=C1C[C@@]2(C(=O)N1)C(=O)N(Cc1ccc(Br)cc1F)C(=O)c1cccn12	-1.14
O=C(O)CCC(=O)Nc1ccc(S(=O)(=O)Nc2nccs2)cc1	3.61
CN(Cc1cc(Br)cc(Br)c1N)C1CCCCC1	1.6
CS(=O)(=O)N1CCN(Cc2cc3nc(-c4cccc5[nH]ncc45)nc(N4CCOCC4)c3s2)CC1	7.45
COc1ccc(Cc2cnc(N)nc2N)cc1OC	1.08
C[C@]12CC[C@@H]3c4ccc(O)cc4C[C@@H](CCCCCCCCC[S+]([O-])CCCC(F)(F)C(F)(F)F)[C@H]3[C@@H]1CC[C@@H]2O (some centres unmarked)	2.64
C=CC(=O)Nc1cc2c(Nc3ccc(F)c(Cl)c3)ncnc2cc1C#CC(C)(C)N1CCN(C)CC1	5.1

Study 2
Target: Sal-like protein 4, full length isoform A (SALL4, Homo sapiens, UniProt Q9UJQ4, residues 1-1053)
UniProt Q9UJQ4, sequence (whole entry, looked up): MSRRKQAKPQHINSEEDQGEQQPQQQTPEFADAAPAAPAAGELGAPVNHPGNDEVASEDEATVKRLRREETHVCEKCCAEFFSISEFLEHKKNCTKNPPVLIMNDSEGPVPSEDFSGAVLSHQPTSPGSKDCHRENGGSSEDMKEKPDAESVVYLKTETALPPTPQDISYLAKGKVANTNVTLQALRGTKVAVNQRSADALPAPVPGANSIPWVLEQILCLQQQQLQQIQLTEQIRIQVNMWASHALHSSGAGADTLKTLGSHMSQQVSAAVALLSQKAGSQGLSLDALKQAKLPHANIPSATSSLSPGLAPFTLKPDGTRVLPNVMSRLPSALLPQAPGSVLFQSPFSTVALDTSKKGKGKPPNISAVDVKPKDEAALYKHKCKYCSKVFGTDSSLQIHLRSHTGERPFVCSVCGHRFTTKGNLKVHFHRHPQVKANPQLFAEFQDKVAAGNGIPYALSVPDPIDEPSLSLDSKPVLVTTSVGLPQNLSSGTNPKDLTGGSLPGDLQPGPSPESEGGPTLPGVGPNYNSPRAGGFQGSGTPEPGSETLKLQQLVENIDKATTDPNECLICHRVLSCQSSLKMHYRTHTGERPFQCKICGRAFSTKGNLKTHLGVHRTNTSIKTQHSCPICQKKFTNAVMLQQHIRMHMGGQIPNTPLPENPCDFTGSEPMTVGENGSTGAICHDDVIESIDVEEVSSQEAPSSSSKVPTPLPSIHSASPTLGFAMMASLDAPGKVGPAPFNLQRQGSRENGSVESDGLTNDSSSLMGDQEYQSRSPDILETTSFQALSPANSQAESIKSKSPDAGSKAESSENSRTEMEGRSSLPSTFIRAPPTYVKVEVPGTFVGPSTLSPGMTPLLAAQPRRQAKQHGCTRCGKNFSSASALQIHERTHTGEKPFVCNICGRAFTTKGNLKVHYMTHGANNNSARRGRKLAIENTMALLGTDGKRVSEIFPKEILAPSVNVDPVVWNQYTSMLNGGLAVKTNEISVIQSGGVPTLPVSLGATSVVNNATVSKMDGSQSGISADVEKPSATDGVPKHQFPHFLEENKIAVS
Technique: universal PBM
Form: double-stranded DNA, one strand shown
Sample: in vitro
Tested at: 600 nM
Setting: 8-mer, flanks averaged, mean of replicates
Direction: higher = stronger binding
Sequence	E-score
AGCCTGGG	-0.294
ACGGAGCT	-0.243
ATTCCAAC	0.0673
AGCAGTCC	-0.193
GTCAGGTA	-0.0664
TCTACCAA	0.153
CACTGGTA	0.0265
CTCTTTAC	0.024

Study 3
Target: Histone acetyltransferase KAT6A, winged helix 1, GST fusion (KAT6A, Homo sapiens, UniProt Q92794, residues 1-85)
Technique: protein binding microarray
Form: double-stranded DNA, one strand shown
Sample: in vitro
Tested at: not given
Setting: 8-mer, flanks averaged, mean of 2 arrays, mostly near background
Baseline: not given
Direction: higher = stronger binding
Residues (chain): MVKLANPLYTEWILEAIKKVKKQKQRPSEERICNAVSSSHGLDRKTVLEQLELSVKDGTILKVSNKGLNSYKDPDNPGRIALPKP
Sequence	E-score
AGTTTGCC	0.0961
ACCTCGGA	-0.109
ATCGGGCA	0.0145
AATTTGGA	-0.329
CTCCCAAC	-0.0713
GAGCGGGC	0.406
GCCACTAC	0.15
ACAACCCG	0.175

Study 4
Cell line: HEK-293T
Read-out: pseudovirus infection
Technique: FDA-approved drug library screen
Organism: VSV pseudotyped with SARS-CoV-2 spike
Tested at: 10 µM
Time: 16 h
Baseline: vehicle-treated
SMILES	GFP-positive cells [%]
Cc1cc(-c2ccc(/N=N/c3ccc4c(S(=O)(=O)O)cc(S(=O)(=O)O)c(N)c4c3O)c(C)c2)ccc1/N=N/c1ccc2c(S(=O)(=O)O)cc(S(=O)(=O)O)c(N)c2c1O	95.9
CCC(=O)OCC(=O)[C@@]1(OC(=O)CC)[C@@H](C)C[C@H]2[C@@H]3CCC4=CC(=O)C=C[C@]4(C)[C@@]3(Cl)[C@@H](O)C[C@@]21C	84.2
CC(=O)CCCCn1c(=O)c2c(ncn2C)n(C)c1=O	97.1

Study 5
Target: Interferon regulatory factor 5, full length, phosphomimetic (IRF5, Homo sapiens, UniProt Q13568-2, residues 1-514, S451D/S453D/S456D/S462D)
Technique: protein-binding microarray
Form: double-stranded DNA, one strand shown
Sample: in vitro
Tested at: 940 nM top
Setting: 60-bp whole probe
Added: salmon DNA 0.4 mg/ml
Baseline: random background probes
Direction: higher = stronger binding
Shared flanks, not repeated: GCCTAGCAC … GTCTTGATTCGCTTGACGCTGCTG
Sequence	fitted relative affinity [z-score]
TTAGGGATCCTTATCCTTTAGTGCTAG	-0.485
GACGGTCTCGGACTGGGGGCGTGCTAG	1.58
ACAACTAGGGAATTTAGAAAAGTGCTA	-0.49
GTAGGTTTCGGGACTGGGTTAGTGCTA	7.5
TTAGATCTCCTTCTCCTTTAGTGCTAG	0.596
GACGGTTTCGGTCTCGGGGCGTGCTAG	13.7
GACGAACTGGGGACTGTAGACGTGCTA	-0.0205
TCATTATTTACTCTCTAACTGTGCTAG	1.55

Repeated from above (study 1):
SMILES	inhibition [%]
Cc1noc(C)c1-c1ccc(-c2cc(C(N)=O)c(NC(N)=O)s2)c(O[C@H]2CCNC2)c1	45.5
O=C(CCN1CCN(C(=O)OCc2cc(Cl)cc(Cl)c2)CC1)c1ccc2[nH]c(=O)oc2c1	2.65
O=C1C[C@@]2(C(=O)N1)C(=O)N(Cc1ccc(Br)cc1F)C(=O)c1cccn12	-1.14
O=C(O)CCC(=O)Nc1ccc(S(=O)(=O)Nc2nccs2)cc1	3.61
CN(Cc1cc(Br)cc(Br)c1N)C1CCCCC1	1.6
